Assay results collected from several papers.
Parts stem from different laboratories: compare values within a part only. Changes are numbered by the printed parent chain.

Series 1 — method: protein-binding microarray; form: hairpin DNA; matrix: in vitro; concentration: not given; relative to: not given; reading: higher = stronger binding; constant ends, left off below: GCAGGCCC … GGGCCTGCACACTCTTTCCCTACACGAC
Target: Transcription factor SOX-2, HMG box (SOX2, Homo sapiens, UniProt P48431, residues 37-118)
UniProt P48431, sequence (37-118, looked up): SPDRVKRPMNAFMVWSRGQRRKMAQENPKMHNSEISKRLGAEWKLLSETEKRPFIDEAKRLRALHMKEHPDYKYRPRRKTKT
Notes: whole hairpin DNA, median over replicate spots
`CGAATGGGCCTCCTGGCCCATTCG` has a median fluorescence of 2500 a.u.
`ACAAGGGGCCTCCTGGCCCCTTGT` gave a median fluorescence of 2310 a.u.
`ACAATGCGCCTCCTGGCGCATTGT` gave a median fluorescence of 3050 a.u.
`ACAACAGGCCTCCTGGCCTGTTGT` has a median fluorescence of 2660 a.u.
With `ACCGTGGGCCTCCTGGCCCACGGT (5mC at 29)` the median fluorescence was 2330 a.u.
The median fluorescence of `ACGATGGGCCTCCTGGCCCATCGT (5mC at 10)` is reported as 2420 a.u.
`ACAATGCGCCTCCTGGCGCATTGT (5mC at 15)` gave a median fluorescence of 3170 a.u.
With `ACACGGGGCCTCCTGGCCCCGTGT (5mC at 28)` the median fluorescence was 2360 a.u.
`ACAATGGGCCTCCTGGCCCATTGT (5mC at 10)` gave a median fluorescence of 2920 a.u.
`GCAATGGGCCTCCTGGCCCATTGC (5mC at 8)` has a median fluorescence of 2430 a.u.
For `ACCATGGGCCTCCTGGCCCATGGT (5mC at 10)`, the median fluorescence was 2440 a.u.
With `ACAACGGGCCTCCTGGCCCGTTGT (5mC at 13)` the median fluorescence was 2440 a.u.
`ACAACAGGCCTCCTGGCCTGTTGT (5mC at 13)` has a median fluorescence of 2470 a.u.
`CTAATGGGCCTCCTGGCCCATTAG` has a median fluorescence of 2450 a.u.

Series 2 — target: CCNA2, cyclin fold, Cln2 fusion (human); method: yeast growth competition, sequencing; matrix: yeast; notes: strong parent motif; relative to: not given; reading: higher = stronger binding
Starting sequence: GMNC docking peptide (human); KNAKRNLSSEFAN
`KNATRNLSSEFAN [K4T]` — result for “normalised enrichment score”: 1.42.
For `KNMKRNLSSEFAN [A3M]`, “normalised enrichment score” read 1.85.
Under “normalised enrichment score”, `KNAKRNESSEFAN [L7E]` is recorded as 0.156.
For `KNAKRNNSSEFAN [L7N]`, “normalised enrichment score” read 0.63.
`KNAKRNLSSENAN [F11N]` — result for “normalised enrichment score”: -0.142.
For `KNAKRNLSSEFGN [A12G]`, “normalised enrichment score” read 4.76.
Under “normalised enrichment score”, `KNAKRNRSSEFAN [L7R]` is recorded as 0.164.
`KNAKRNLSSEFMN [A12M]` — result for “normalised enrichment score”: 4.77.
`KNAKRNLSMEFAN [S9M]` — result for “normalised enrichment score”: 5.5.
For `KNAKRNLSSEFIN [A12I]`, “normalised enrichment score” read 4.72.
`KNAWRNLSSEFAN [K4W]`: “normalised enrichment score” 2.54.
Under “normalised enrichment score”, `KNAKRNLSEEFAN [S9E]` is recorded as 5.1.
`KNAKRNLSSEGAN [F11G]` — result for “normalised enrichment score”: 0.721.

Series 3 — method: RNA Bind-n-Seq; form: RNA; matrix: in vitro; concentration: 365 nM; relative to: no-protein control; reading: higher = stronger binding
Target: RNA binding protein fox-1 homolog 2, RRM domain, GST-SBP tag (RBFOX2, Homo sapiens, UniProt O43251-10, residues 100-194)
Notes: natural RNA segment, single round, ends assumed
Target sequence (chain): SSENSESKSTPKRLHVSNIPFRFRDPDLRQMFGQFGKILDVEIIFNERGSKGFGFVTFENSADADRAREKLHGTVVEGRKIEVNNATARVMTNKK
`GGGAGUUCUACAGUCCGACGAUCUGUAGCGGCCUGUUGUGCAUGCCACCAUGCUGCUGGCCCGGGGGGAUUUGCUCUGAGUCUCCGGUGCAUCAUUUAAUCUGUUAGGUUCUAGUGUUCCGUCUUGUUUUGUGUGGAAUUCUCGGGUGCCAA`: “RBNS enrichment (R)” 2.01.
`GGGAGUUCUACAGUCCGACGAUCCUUGACUUCAGGCAGCAGAUUGUCUAGAAGCCUAAGGACAGCAAUUUCUCUGACAAGACAAAGUAGAUAUUUUAUACCAGGGGUUGGCAAACUACUGCCCACGGGCCGAAUGGAAUUCUCGGGUGCCAA`: “RBNS enrichment (R)” 0.363.
Under “RBNS enrichment (R)”, `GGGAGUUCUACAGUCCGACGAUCUUUAGAUUCAGGGUGGAUUUUCCCUGCCGUGGAAGAACACAGGCAUCUCCCUAGCUUUCUCACGCUAACCCUGAAGUAUGAUCACUUCUGAACCUGCUCCUUUCUUAACUUGGAAUUCUCGGGUGCCAA` is recorded as 0.352.
For `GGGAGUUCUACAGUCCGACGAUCUCUUACCGGUCAUAGGCCCCGGUGAGGAGCAGGGAAGCGCCAUUGUGAAAGAUUAAAGAAAGCACUUCCACUUGAGCUCCUUAUGGAGUGAGCUUCCCUGUGCCCACUCAUGGAAUUCUCGGGUGCCAA`, “RBNS enrichment (R)” read 0.369.
`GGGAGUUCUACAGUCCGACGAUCCCAUGAUUUAUGUUUUCAGGGGAUGCCCAUUUGUCCCAAGCUUAUCCUGUAAUUCUAGAAUUACCUGGUGUCCUGAUGCAUUUUCCACUAGAGGUUGCUAAUCAGCAUGUUGGAAUUCUCGGGUGCCAA` — result for “RBNS enrichment (R)”: 1.73.
For `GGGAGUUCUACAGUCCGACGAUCAAACAAUGCUCACCUCACCAAAAUUAUAUUAUUUGCAGUCAUUUGUGAUAACACAAAUUUUAUCGCAAUGGUUAUUAUUUAAUUUGUGGCCACACACUGUGGUUAUCUUUUGGAAUUCUCGGGUGCCAA`, “RBNS enrichment (R)” read 0.342.
`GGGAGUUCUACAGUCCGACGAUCGUAAUUUUCAAAGAAAGUGAUGUUUGUUAAAUGGGGCGAAAUAAGAAGUUAAAUUUGAAAGUGAAUGUGUUCAAAUGAAAGGCUUGACAAUUGCAUCUGUUACUAGUUUUUGGAAUUCUCGGGUGCCAA` — result for “RBNS enrichment (R)”: 6.7.
For `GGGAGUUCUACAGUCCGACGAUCCAUGUGGCCAGUCCUGUGGGACUUAGGGUCCCAACCUGUAUAUUCUGUCUCAAAGAACAUUAAACUCUUCUGGAACUGGCCCUUGACAGCCUGGGACCAGGGAAACUUUUUGGAAUUCUCGGGUGCCAA`, “RBNS enrichment (R)” read 0.389.
Under “RBNS enrichment (R)”, `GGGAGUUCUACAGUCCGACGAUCAGGUUAUUCUAAACUUUCUUUGUAACUAUUGUUAUAGACAAUGGUUUCCAAACCAGUGGUUUCUAUGUAGCUUUUCUAGUUCCUUGCUAUCUUCUCACCACUGGCUUGAGUGGAAUUCUCGGGUGCCAA` is recorded as 0.325.
Under “RBNS enrichment (R)”, `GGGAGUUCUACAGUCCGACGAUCGAAUAUCAGUCAUGAUGGCAAUUUCUGUAUAAAAGAGCCUUAAAUGGAACAUUGUUUUGAGAUCAAACUCCCCACCCUCACAAAAAUGGCCACGUUGCAAUAAAAAUUGUUGGAAUUCUCGGGUGCCAA` is recorded as 0.764.
For `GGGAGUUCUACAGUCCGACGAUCGCAGGACAUCGUUCUCCCUGGCUGCAUCCACUCAGUGCUGGGAGUAGUCCCCAGUUAUUAUGAAACCACCAAUAACCCACUGACCACAGUGAGAACCACUGAUUUUUUCCUGGAAUUCUCGGGUGCCAA`, “RBNS enrichment (R)” read 0.861.
`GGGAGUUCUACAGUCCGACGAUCUCUCACCCUGGUGUCAACAUGCUGUGCCUUUCUCUUUCUCUAUUUUUGUUGGUGACCUGGAUAGUGUGGCCUUUGGGACAGAUCAGAGGCACAGGAAAGCAAAGGAAAUGUGGAAUUCUCGGGUGCCAA`: “RBNS enrichment (R)” 0.807.

Mixed results
The fold induction of `PhoQ, residues 284 288 289 292 302 303 AAQSYM` is reported as 8.6 (PhoP, residues 12 14 15 18 19 SEGLL (Escherichia coli, UniProt P23836); Sort-seq, item: YFP reporter; E. coli; PhoQ-PhoP variant library, with: 10 µM Mg2+; relative to: high Mg2+ state, higher = stronger signaling).

Some of these lines once more (series 1):
For `ACCATGGGCCTCCTGGCCCATGGT (5mC at 10)`, the median fluorescence was 2440 a.u.
With `ACAACGGGCCTCCTGGCCCGTTGT (5mC at 13)` the median fluorescence was 2440 a.u.
`ACAACAGGCCTCCTGGCCTGTTGT (5mC at 13)` has a median fluorescence of 2470 a.u.
`CTAATGGGCCTCCTGGCCCATTAG` has a median fluorescence of 2450 a.u.
